Published values pooled from the literature.
Each numbered part is a random draw from the data of one study; scales do not carry over between parts.
UniProt O75116, sequence (whole entry, looked up): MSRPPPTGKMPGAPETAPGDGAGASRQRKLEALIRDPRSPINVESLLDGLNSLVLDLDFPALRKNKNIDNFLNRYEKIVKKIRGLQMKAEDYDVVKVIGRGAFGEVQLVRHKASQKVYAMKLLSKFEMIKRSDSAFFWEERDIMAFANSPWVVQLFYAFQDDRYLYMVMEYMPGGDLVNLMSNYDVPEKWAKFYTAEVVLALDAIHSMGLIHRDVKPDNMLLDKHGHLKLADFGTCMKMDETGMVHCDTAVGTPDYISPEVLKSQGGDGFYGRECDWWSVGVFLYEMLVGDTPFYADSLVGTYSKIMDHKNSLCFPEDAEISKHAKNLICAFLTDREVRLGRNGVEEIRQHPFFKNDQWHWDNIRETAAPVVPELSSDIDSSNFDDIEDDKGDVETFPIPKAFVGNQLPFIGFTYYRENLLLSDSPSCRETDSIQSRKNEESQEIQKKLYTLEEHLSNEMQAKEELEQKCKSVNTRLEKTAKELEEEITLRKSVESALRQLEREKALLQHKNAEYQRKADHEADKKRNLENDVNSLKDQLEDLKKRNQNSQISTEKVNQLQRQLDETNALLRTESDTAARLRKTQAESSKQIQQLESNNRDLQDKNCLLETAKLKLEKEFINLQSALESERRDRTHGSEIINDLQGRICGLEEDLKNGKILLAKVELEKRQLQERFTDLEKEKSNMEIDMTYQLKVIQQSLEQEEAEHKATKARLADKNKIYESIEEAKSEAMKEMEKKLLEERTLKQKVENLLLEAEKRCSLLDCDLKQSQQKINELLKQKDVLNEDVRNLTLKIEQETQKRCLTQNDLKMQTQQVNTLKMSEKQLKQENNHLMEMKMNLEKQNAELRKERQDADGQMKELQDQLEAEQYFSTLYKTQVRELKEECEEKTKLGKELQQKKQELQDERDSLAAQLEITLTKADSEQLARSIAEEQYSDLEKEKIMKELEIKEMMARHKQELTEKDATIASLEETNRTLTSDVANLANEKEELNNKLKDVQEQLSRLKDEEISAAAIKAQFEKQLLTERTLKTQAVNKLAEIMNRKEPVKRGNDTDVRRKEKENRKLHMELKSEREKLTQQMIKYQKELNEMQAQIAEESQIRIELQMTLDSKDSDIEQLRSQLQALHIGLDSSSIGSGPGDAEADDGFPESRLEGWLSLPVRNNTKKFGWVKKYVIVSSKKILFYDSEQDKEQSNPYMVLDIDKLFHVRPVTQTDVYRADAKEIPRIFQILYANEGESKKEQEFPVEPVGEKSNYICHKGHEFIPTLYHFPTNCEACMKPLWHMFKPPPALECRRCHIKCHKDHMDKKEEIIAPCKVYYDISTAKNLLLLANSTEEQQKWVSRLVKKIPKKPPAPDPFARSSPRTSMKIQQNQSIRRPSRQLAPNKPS
UniProt Q9NSY1, sequence (whole entry, looked up): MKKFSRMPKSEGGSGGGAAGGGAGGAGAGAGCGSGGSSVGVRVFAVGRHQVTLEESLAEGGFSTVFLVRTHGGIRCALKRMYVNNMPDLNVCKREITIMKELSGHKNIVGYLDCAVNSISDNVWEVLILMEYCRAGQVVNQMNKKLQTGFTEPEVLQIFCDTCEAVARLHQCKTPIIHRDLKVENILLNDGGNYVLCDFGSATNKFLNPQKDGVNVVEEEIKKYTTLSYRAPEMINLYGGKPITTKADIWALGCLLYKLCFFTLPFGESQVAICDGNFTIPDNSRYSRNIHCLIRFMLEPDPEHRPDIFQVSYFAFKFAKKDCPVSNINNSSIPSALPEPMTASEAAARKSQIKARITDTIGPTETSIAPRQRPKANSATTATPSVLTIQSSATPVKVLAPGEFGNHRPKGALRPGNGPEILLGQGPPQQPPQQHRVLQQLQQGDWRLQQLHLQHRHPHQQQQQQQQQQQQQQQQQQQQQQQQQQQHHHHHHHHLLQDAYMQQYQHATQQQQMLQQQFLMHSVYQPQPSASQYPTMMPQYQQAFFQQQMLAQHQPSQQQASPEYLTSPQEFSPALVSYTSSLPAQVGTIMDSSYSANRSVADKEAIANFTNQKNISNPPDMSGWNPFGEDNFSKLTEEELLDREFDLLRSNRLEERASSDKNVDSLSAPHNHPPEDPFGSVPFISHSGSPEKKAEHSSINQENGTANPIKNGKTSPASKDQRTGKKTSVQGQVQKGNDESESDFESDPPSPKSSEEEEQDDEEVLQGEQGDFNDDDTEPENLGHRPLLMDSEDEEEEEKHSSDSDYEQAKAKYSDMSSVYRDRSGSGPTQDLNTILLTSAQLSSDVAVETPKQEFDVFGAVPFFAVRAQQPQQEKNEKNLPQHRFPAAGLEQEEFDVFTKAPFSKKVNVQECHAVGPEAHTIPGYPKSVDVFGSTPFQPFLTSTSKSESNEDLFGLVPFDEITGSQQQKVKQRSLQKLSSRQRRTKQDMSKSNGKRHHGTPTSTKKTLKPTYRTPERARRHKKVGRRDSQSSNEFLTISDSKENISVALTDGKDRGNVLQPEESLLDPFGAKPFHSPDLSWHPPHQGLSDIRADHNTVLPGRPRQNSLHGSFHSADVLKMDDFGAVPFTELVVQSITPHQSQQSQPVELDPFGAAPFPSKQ
UniProt P42679, sequence (whole entry, looked up): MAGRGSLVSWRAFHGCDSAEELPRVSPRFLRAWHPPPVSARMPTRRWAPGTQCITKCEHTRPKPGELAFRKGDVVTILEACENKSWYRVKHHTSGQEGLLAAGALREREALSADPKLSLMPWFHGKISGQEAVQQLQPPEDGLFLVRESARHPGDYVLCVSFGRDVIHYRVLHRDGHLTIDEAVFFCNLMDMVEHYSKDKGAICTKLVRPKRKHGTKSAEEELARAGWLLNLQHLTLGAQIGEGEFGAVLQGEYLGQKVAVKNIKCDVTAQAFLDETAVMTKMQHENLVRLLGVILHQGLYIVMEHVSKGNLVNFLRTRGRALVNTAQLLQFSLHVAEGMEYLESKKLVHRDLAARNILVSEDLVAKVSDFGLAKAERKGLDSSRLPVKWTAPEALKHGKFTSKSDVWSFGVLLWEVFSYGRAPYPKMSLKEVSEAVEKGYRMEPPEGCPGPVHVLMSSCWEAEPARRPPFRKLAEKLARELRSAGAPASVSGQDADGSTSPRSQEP
UniProt O43283, sequence (whole entry, looked up): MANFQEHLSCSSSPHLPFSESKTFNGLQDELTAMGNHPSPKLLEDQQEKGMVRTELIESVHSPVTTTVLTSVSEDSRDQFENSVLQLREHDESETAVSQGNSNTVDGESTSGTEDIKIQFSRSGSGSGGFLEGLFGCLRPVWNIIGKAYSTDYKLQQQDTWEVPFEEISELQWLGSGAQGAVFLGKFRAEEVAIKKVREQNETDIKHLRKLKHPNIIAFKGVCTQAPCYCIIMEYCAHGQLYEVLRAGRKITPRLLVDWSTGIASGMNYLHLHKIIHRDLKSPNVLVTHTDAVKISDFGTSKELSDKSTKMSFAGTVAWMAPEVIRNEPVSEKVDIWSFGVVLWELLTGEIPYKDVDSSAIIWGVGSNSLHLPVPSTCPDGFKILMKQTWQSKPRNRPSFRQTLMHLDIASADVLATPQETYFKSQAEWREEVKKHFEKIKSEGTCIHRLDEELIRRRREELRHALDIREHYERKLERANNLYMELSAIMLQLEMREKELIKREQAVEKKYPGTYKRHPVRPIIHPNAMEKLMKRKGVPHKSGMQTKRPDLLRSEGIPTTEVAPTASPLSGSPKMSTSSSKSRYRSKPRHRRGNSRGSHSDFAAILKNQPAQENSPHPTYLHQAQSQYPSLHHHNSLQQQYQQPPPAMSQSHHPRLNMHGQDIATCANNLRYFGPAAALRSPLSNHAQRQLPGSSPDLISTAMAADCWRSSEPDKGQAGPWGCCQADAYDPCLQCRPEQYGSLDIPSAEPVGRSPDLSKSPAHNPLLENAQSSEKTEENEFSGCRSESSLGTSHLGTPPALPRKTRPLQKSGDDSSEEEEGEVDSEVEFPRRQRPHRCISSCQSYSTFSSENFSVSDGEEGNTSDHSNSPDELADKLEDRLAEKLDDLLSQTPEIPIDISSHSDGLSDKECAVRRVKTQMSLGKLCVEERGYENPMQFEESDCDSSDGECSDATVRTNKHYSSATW
UniProt P49336, sequence (whole entry, looked up): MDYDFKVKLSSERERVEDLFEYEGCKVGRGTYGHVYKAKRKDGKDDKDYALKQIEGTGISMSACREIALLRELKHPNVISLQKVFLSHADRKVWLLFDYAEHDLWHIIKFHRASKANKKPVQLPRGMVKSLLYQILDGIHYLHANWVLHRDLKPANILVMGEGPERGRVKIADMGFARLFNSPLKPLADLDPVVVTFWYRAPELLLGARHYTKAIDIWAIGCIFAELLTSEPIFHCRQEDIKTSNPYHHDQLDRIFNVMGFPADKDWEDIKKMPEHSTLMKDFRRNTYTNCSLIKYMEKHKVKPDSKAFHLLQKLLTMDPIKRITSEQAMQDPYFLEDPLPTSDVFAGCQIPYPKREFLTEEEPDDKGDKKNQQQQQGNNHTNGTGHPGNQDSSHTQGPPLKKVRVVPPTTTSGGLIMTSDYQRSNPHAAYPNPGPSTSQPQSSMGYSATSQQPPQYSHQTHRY

Study 1
Target: Ras GTPase-activating protein-binding protein 1, full length (G3BP1, Homo sapiens, UniProt Q13283)
UniProt Q13283, sequence (whole entry, looked up): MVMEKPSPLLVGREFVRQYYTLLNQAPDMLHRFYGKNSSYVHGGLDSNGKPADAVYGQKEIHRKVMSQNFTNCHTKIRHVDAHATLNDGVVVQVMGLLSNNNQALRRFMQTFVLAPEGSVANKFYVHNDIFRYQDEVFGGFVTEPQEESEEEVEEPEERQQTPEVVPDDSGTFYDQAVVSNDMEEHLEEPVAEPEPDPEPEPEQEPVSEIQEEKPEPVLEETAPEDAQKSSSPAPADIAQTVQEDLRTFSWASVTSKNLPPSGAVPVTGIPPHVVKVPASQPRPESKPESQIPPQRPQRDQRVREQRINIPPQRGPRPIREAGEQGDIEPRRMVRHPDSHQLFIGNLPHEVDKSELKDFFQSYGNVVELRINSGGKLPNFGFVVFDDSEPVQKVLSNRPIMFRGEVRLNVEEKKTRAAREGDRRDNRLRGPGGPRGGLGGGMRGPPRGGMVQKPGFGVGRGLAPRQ
Technique: RNA Bind-n-Seq
Molecule type: RNA
Matrix: in vitro
Concentration: 200 nM
Notes: whole 134-nt RNA, ends assumed
Added: 150 mM KCl
Reference: input library
Direction: higher = stronger binding
Shared flanks, not repeated: GGGAGUUCUACAGUCCGACGAUC … UGGAAUUCUCGGGUGUCAAGG
Strand | log2 enrichment
UGCAGAUUGAUGAGUAUGAUCACUCCAAGCCCAUCCAGGGGCAACAGAAGAAGCCCUUUGAGGUGCACUGGAGGAAGCACACCCUGUCCU | -1.81
UGGGAGGUGGAUUUUGUUUAUUUUUUUAGCUCAUUUCCAGGGGUGGGAAUUUUUUUUUAACAUGUGUCAUGAAUAAAGUUGUUUUUGAAA | 0.144
UUGUUUAUUCUGUGUCUUUUGCCUCCUUUCCUACAGAUGUCCGGCAGGAUAAUGCUGCUGGCAGAGCUGGCUCCAGUAGCCUUACACAGG | 0.375
UGGCGCUGGUGGCAUGCGGGGAGGAAGAGGUGGCCUCAUGGAUCGUGGUGGUCCCGGUGGAAUGUUCAGAGGUGGCCGUGGUGGAGACAG | 0.62
UAACUUUAGAGGAGGAUCUGAUGGAUAUGGGAGUGGACGUGGAUUUGGGGAUGGCUAUAAUGGGUAUGGAGGAGGACCUGGAGGUGGCAA | 0.473
CACAGACAACACGCACCCACACAGACCCAGAGGGAAGGGGUUGGGAUGGGGACAGGGUGCACAGCAGGGCGGGGUAGGACCCCAGCCCCU | 1.82
UCCUGUGCUACACAUCGUAUGUACCGAAUCGGGGAAAAAGGGGUUUGGGGUUUUUGGGGAAAGUAUUAUGUUACGCCGUUCGGAUCUGCA | 0.635
GUCCUGUGCUACACAUCGUAUGUACCGAAUCGGGGUUUUUGGUUUUUGGGUUUUUGGGGAAAGUAUUAUGUUACGCCGUUCGGAUCUGCA | -0.468

Study 2
Structure (SMILES): Cc1nc(Nc2ncc(C(=O)Nc3c(C)cccc3Cl)s2)cc(N2CCN(CCO)CC2)n1
Observed: enzyme activity
Action: inhibitor
Concentration: 0.5 µM
Reference: control
target | remaining activity [%]
Insulin receptor (INSR, Homo sapiens, UniProt P06213) | 97.2
MATK (Homo sapiens, UniProt P42679) | 79
MARK3 (Homo sapiens, UniProt P27448) | 97.8
FER (Homo sapiens, UniProt P16591) | 95.9
AKT1 (Homo sapiens, UniProt P31749) | 96.7

Study 3
SMILES: CS(=O)(=O)c1cc(C2(NC(=O)c3cncc4c3cnn4-c3ccc(F)cc3)CC2)ccn1
Concentration: 1 µM
target | observed | technique | remaining binding
PAK6 (Homo sapiens, UniProt Q9NQU5) | cell-free assay | competition with immobilised ligand | 96%
MAP3K13 (Homo sapiens, UniProt O43283) | cell-free assay | competition with immobilised ligand | 76%
TTK (Homo sapiens, UniProt P33981) | cell-free assay | competition with immobilised ligand | 90%
Macrophage colony-stimulating factor 1 receptor, autoinhibited (CSF1R, Homo sapiens, UniProt P07333) | cell-free assay | competition with immobilised ligand | 100%
PIK3CD (Homo sapiens, UniProt O00329) | cell-free assay | competition with immobilised ligand | 100%
CDK8 (Homo sapiens, UniProt P49336) | cell-free assay | competition with immobilised ligand | 100%
BMP2K (Homo sapiens, UniProt Q9NSY1) | cell-free assay | competition with immobilised ligand | 89%
PRKG1 (Homo sapiens, UniProt Q13976) | cell-free assay | competition with immobilised ligand | 100%
ROCK2 (Homo sapiens, UniProt O75116) | cell-free assay | competition with immobilised ligand | 75%
Tyrosine-protein kinase ABL1, phosphorylated (ABL1, Homo sapiens, UniProt P00519, F317I) | binding |  | 79%
DAPK2 (Homo sapiens, UniProt Q9UIK4) | cell-free assay | competition with immobilised ligand | 96%
MYLK (Homo sapiens, UniProt Q15746) | cell-free assay | competition with immobilised ligand | 94%
HUNK (Homo sapiens, UniProt P57058) | cell-free assay | competition with immobilised ligand | 100%

Single results of other studies
Molecule | target or system | test | system | setting | endpoint | value
GLO1 (Homo sapiens, UniProt Q04760) | WDR72 (Homo sapiens, UniProt Q3MJ13) | cross-linking MS | cell fractions | added: DSSO | cross-linked residues | K88 to K781
CC(C)n1cnc(-c2ccc(F)cc2)c1-c1ncc(C(=O)Nc2ccc(N3CCN(C)CC3)cc2)[nH]1 |  |  | IPF patients | dose not given, all drug arms pooled | Cholecystitis incidence | 0%
KRT8 (Homo sapiens, UniProt P05787) | MAP4K3 (Homo sapiens, UniProt Q8IVH8) | cross-linking MS | cell fractions | added: DSSO | cross-linked residues | S258 to T327
TRIP4 (Homo sapiens, UniProt Q15650) | CORO1C (Homo sapiens, UniProt Q9ULV4) | cross-linking MS | cell fractions | added: DSSO | cross-linked residues | K308 to K398
SYNCRIP (Homo sapiens, UniProt O60506) | HNRNPD (Homo sapiens, UniProt Q14103) | cross-linking MS | cell fractions | added: DSSO | cross-linked residues | K363 to T193

A few entries again (study 2):
target | remaining activity [%]
MATK (Homo sapiens, UniProt P42679) | 79
MARK3 (Homo sapiens, UniProt P27448) | 97.8
FER (Homo sapiens, UniProt P16591) | 95.9
